Measured values pooled from the literature.
Each numbered part is a random draw from the data of one study; scales do not carry over between parts. Substitutions count along the parent as printed.
UniProt P08069, sequence (whole entry, looked up): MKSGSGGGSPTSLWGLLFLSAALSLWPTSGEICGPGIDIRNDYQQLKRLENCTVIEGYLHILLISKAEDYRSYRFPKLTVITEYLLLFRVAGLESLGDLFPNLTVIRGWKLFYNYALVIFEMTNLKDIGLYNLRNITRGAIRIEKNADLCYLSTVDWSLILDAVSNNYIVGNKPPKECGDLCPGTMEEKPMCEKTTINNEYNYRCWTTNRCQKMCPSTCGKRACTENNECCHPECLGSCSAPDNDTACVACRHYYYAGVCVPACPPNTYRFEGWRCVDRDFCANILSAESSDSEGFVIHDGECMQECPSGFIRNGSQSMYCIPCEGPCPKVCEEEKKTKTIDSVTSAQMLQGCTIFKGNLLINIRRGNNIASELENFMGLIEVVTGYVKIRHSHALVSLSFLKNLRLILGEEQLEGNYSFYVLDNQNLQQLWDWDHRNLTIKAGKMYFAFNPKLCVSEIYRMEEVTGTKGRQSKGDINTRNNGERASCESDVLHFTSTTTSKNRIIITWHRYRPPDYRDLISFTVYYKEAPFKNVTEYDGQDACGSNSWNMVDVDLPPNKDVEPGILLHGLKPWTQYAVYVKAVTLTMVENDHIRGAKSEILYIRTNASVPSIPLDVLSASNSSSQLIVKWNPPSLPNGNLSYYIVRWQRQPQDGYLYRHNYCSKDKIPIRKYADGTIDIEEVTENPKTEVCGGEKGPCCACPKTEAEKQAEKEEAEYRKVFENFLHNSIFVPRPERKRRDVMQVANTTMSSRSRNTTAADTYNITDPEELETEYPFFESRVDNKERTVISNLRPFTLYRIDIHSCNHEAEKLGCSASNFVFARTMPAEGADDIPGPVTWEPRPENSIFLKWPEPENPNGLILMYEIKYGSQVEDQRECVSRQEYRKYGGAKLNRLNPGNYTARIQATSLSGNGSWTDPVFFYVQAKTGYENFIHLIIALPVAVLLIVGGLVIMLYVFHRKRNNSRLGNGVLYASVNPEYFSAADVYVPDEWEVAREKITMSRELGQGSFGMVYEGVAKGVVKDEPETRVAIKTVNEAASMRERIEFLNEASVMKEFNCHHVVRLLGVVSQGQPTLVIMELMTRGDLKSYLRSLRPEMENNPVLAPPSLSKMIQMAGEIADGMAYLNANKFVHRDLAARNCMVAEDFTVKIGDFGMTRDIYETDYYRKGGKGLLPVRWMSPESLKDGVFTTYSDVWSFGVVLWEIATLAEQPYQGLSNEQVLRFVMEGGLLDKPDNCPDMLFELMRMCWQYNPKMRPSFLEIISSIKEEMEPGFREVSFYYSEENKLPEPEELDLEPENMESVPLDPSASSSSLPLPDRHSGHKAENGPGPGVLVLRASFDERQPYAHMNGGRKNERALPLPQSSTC
UniProt Q99640, sequence (whole entry, looked up): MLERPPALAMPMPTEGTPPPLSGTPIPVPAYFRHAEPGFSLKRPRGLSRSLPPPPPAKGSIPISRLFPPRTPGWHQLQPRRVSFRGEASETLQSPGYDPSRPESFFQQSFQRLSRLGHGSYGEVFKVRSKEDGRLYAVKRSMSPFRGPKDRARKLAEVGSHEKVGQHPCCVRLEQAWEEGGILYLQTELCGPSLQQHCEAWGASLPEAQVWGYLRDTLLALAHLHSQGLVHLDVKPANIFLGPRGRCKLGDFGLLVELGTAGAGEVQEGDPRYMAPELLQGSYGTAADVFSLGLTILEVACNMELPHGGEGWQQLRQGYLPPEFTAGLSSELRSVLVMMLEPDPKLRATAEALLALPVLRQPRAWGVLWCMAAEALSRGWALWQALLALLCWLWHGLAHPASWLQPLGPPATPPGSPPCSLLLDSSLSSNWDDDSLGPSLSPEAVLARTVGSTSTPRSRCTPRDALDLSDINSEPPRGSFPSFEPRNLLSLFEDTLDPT
UniProt P27037, sequence (whole entry, looked up): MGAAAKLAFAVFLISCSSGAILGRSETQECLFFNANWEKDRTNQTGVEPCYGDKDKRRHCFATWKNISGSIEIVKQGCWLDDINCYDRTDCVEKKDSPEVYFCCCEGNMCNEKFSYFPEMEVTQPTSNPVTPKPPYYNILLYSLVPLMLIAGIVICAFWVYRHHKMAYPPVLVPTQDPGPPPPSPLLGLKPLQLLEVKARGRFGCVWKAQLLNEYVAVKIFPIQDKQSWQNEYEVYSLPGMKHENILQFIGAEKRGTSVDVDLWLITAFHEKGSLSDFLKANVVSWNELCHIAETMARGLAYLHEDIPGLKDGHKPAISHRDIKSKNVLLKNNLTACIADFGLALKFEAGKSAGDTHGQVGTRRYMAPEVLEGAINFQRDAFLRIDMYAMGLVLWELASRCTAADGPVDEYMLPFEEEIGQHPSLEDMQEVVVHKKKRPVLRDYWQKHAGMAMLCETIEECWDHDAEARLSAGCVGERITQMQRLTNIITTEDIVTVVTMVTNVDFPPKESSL

Sample 1 — method: DHFR PCA, deep sequencing; sample: yeast; together with: (+)-ABA 58 µM; reference: wild-type fitted maximum; direction: higher = stronger binding
Target: ABI1, truncated, D143A, DHFR fusion (Arabidopsis thaliana)
Setting: methotrexate growth selection, single substitutions
Parent: PYL1, truncated, DHFR fusion (Arabidopsis thaliana); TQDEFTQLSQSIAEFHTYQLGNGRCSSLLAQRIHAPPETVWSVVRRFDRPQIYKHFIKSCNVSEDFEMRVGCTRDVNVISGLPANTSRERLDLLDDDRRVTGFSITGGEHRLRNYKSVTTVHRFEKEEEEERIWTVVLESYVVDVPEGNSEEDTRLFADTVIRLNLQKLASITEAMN
Variant	relative binding score [%]
S63C	85.1
K54Q	10.2
G108W	-1.53
H55C	93.5
E129V	90.5
H34N	90.7
Q19P	95.2
T73Q	87

Sample 2 — read-out: cell-free assay; method: competition with immobilised ligand; concentration: 1 µM
SMILES: CCCOc1ccc([C@H]2[C@H](C(=O)O)[C@@H](c3ccc4c(c3)OCO4)CN2CC(=O)Nc2c(CC)cccc2CC)cc1
target	remaining binding [%]
Membrane-associated tyrosine- and threonine-specific cdc2-inhibitory kinase (PKMYT1, Homo sapiens, UniProt Q99640)	74
Activin receptor type-2A (ACVR2A, Homo sapiens, UniProt P27037)	100
Insulin-like growth factor 1 receptor (IGF1R, Homo sapiens, UniProt P08069)	89

Sample 3 — method: protein-binding microarray; molecule type: double-stranded DNA, one strand shown; sample: in vitro; concentration: 250 nM; setting: 60-bp whole probe; together with: salmon DNA 0.4 mg/ml; reference: random background probes; direction: higher = stronger binding; shared flanks, not repeated: GCCTAGCAC … GTCTTGATTCGCTTGACGCTGCTG
Target: Interferon regulatory factor 7, full length, phosphomimetic (IRF7, Homo sapiens, UniProt Q92985, residues 1-503, S101K/S471D/S472D/S475D/S476D/S477D/S483D/S484D/S487D)
Target sequence (chain): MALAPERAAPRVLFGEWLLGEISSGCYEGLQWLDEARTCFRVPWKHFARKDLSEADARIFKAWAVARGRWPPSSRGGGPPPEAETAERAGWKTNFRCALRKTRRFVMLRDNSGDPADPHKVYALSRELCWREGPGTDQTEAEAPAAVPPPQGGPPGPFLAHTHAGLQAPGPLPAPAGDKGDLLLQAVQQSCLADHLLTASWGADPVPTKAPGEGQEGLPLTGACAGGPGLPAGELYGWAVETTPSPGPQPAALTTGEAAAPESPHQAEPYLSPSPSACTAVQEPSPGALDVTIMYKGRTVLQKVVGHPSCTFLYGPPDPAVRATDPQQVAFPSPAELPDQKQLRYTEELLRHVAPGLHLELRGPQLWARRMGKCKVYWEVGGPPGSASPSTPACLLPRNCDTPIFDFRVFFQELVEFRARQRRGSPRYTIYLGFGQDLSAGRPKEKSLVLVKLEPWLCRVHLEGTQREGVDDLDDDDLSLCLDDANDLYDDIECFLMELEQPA
Oligonucleotide	log fluorescence [z-score]
TTAGGTATCGGTTTCGGTTTGTGCTAG	13.2
GAGGGTATCCTTTTCCTGACGTGCTAG	0.607
GACGATTTCGGGTTTCGAGACGTGCTA	4.37
GACGATAGCAGTATCGAGACGTGCTAG	-0.49
GACGATATTGGGTTTCGAGACGTGCTA	2.43
TTAGGTTTCGGGACTGGGTGAGTGCTA	3.55
TCACGGCTCGTTATCCTACTGTGCTAG	0.369
TCATTTTTTTCTTTTATACTGTGCTAG	1.6

Other studies, line by line
Rela Rel homology region: Transcription factor p65, Rel homology region (Rela, Mus musculus, UniProt Q04207, residues 1-314)
UniProt Q04207, sequence (1-314, looked up): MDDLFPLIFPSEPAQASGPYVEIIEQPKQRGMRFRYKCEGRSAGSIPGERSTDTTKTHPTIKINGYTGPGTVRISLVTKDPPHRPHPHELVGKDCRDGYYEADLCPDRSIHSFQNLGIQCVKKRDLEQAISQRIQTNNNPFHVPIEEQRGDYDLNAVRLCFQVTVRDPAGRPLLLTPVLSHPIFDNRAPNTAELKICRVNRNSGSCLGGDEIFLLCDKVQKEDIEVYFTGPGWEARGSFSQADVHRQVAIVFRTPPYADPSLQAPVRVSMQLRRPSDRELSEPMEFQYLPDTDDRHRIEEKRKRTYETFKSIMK
Substance	target or system	assay	system	conditions	how to read	measurement	result
GGAAATTCCC	Rela Rel homology region	surface plasmon resonance	double-stranded DNA, one strand shown, in vitro	1 nM to 1 µM, 10-bp κB site, 1:1 kinetic fit, 10 °C	higher = slower dissociation	dissociation half-life	45 s
CCOC(=O)[C@@H]1CSCC(=O)N[C@@H](CC)C(=O)N(C)[C@@H](C)C(=O)N[C@H](CC(C)C)C(=O)N2CCC[C@H]2C(=O)N(CC)CC(=O)N[C@@H](CC(C)C)C(=O)N(C)[C@H](C)C(=O)N[C@@H](CC(C)C)C(=O)N1C	–	–	hydrocarbon/water	–	–	logD	-0.38
GGGGAATTTT	Rela Rel homology region	surface plasmon resonance	double-stranded DNA, one strand shown, in vitro	1 nM to 1 µM, 10-bp κB site, 1:1 kinetic fit, 10 °C	higher = slower dissociation	dissociation half-life	7 s
